Published values collected from several papers.
Numbered parts are unrelated; each lists some results of a single study.

Series 1
Target: Interferon regulatory factor 5, full length, phosphomimetic (IRF5, Homo sapiens, UniProt Q13568-2, residues 1-514, S451D/S453D/S456D/S462D)
Technique: protein-binding microarray
Form: double-stranded DNA, one strand shown
Sample: in vitro
Tested at: 940 nM top
Notes: 60-bp whole probe
With: salmon DNA 0.4 mg/ml
Baseline: random background probes
Direction: higher = stronger binding
All sequences stand within: GCCTAGCAC … GTCTTGATTCGCTTGACGCTGCTG
Sequence | fitted relative affinity
TTAGGACTGCTTATCCATTAGTGCTAG | -0.288 z-score
TTATGTCTCCTTTTCCTTTAGTGCTAG | 1.43 z-score
TCATAACTCATTTTCGTACTGTGCTAG | 1.24 z-score
GATGGTTTCCTTCTCCTGACGTGCTAG | 2.1 z-score
TACGGACTGGACTTTCGGGACGTGCTA | 0.284 z-score
TTAGGACTGGACTTTCCGTTAGTGCTA | -0.39 z-score
GACGGTATCGGGTAGCGGGACGTGCTA | 5.15 z-score
GATGATTTCAGTATCGAGACGTGCTAG | 2.47 z-score
ATAGGACTGGGTCTCGGTTAGTGCTAG | 1.12 z-score
TTAGATGTCGGGACTGGATTAGTGCTA | -0.179 z-score
GACGAACTGGGGTATCGGGACGTGCTA | 0.688 z-score
TCACTTTCTGTTTTCTCACTGTGCTAG | 5.6 z-score
TTAGGACTGAGTTTCGATTAGTGCTAG | 6.98 z-score
TTGTGTCTGGGCATTTTTTTAGTGCTA | -0.596 z-score
TCACTTTTCACTTTACAACTGTGCTAG | 2.08 z-score
TTAGGTTTCGGGTATTGGTTAGTGCTA | 10.9 z-score
GACGACATCAGACTGGAGACGTGCTAG | -0.538 z-score
TTAGATATCAGTACCGATTAGTGCTAG | 0.078 z-score

Series 2
Target: Prothrombin, mature alpha-thrombin (F2, Homo sapiens, UniProt P00734)
Technique: aptamer microarray, sandwich
Form: DNA with 2'F-ANA
Sample: in vitro
Tested at: 200 nM
Notes: whole 15-mer aptamer, many near background
With: Cy3 exosite-II aptamer, 400 nM
Direction: higher = stronger binding
Sequence: GGTTGGTGTGGTTGG
Modification | mean fluorescence intensity [a.u.]
2'F-ANA at 3 4 5 6 10 11 12 | 54.7
2'F-ANA at 1 3 6 11 12 13 14 15 | 89.1
2'F-ANA at 2 3 5 7 10 12 14 15 | 52.8
2'F-ANA at 1 2 4 5 6 7 8 10 12 14 | 48.9
2'F-ANA at 3 4 7 8 9 10 13 15 | 230
2'F-ANA at 1 4 7 13 14 | 52.3
2'F-ANA at 2 3 4 5 6 9 11 14 | 45.4
2'F-ANA at 2 3 10 11 14 15 | 238
2'F-ANA at 1 5 6 7 8 9 12 14 15 | 62.3
2'F-ANA at 1 3 4 6 8 9 11 13 14 | 103
2'F-ANA at 1 2 4 5 6 7 12 15 | 103
2'F-ANA at 11 15 | 487
2'F-ANA at 1 4 5 7 9 11 13 14 | 45.9
2'F-ANA at 4 5 7 8 10 11 14 | 45.7
2'F-ANA at 1 2 3 7 9 10 12 13 14 | 54.6
2'F-ANA at 4 6 9 | 263
2'F-ANA at 3 8 11 14 15 | 668
2'F-ANA at 1 8 9 10 11 12 14 15 | 51.1
2'F-ANA at 1 2 3 4 5 9 10 12 | 61.6
2'F-ANA at 7 9 14 15 | 228
2'F-ANA at 1 2 4 5 9 11 12 14 | 47
2'F-ANA at 4 5 7 9 11 12 14 15 | 59.5

Series 3
Target: Sal-like protein 4, full length isoform B (SALL4, Homo sapiens, UniProt Q9UJQ4-2, residues 1-616)
Technique: universal PBM
Form: double-stranded DNA, one strand shown
Sample: in vitro
Tested at: not given
Notes: 8-mer, flanks averaged, mean of replicates
Direction: higher = stronger binding
Construct (chain): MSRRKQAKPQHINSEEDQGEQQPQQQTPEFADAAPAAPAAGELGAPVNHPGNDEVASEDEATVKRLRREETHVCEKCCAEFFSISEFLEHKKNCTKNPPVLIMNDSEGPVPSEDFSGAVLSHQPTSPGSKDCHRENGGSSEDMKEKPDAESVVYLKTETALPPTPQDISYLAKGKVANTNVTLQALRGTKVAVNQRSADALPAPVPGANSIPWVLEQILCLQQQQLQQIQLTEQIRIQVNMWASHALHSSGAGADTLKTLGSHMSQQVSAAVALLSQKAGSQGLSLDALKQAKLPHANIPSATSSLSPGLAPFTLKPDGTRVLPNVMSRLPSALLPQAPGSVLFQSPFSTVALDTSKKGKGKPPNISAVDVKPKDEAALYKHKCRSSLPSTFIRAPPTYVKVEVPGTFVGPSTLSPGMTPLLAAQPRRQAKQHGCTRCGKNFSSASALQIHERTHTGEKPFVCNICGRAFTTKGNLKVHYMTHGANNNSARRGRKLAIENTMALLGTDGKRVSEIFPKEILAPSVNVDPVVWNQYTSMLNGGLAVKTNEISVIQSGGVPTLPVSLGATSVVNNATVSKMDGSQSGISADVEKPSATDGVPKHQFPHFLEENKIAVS
Sequence | E-score
AAATATCC | 0.275
CTCGGGCA | -0.187
TACACAAA | 0.337
AGAACGAA | 0.0916
GCTTTTAC | 0.161
ACACTCAA | 0.0906
GAGCGCAA | -0.19
AAAGGCTG | -0.178
CCAGTAGA | -0.0236
AGTGAAGA | 0.074
AGGCAATC | -0.0563
CTCTGAAA | 0.142
CACTCAGC | -0.215
CGCCACCG | -0.315
CCGTCAAA | -0.0125
AACAGTAA | 0.0157
CCGCGTGC | -0.267
TGAGACAA | -0.0386
ACCCAGAG | -0.0859

Series 4
Target: Histone acetyltransferase KAT6A, both winged helices, GST fusion (KAT6A, Homo sapiens, UniProt Q92794, residues 1-181)
Technique: protein binding microarray
Form: double-stranded DNA, one strand shown
Sample: in vitro
Tested at: not given
Notes: 8-mer, flanks averaged, mean of 2 arrays, mostly near background
Baseline: not given
Direction: higher = stronger binding
Target sequence (chain): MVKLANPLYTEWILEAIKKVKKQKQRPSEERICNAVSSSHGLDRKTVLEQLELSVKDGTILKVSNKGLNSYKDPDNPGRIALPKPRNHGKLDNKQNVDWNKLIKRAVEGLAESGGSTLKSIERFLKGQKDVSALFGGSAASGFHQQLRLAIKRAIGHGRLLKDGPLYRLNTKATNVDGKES
Sequence | E-score
GCGTTGAC | 0.0131
TAAGCCGA | 0.0678
CTCGATCC | -0.132
ACCCTAGT | -0.24
GCCGGAGA | 0.0954
ACTGTGCG | 0.177
ATGTCCCA | -0.0998
TTATGGAA | -0.158
AGGGGAGG | -0.235
TAATCCGA | 0.0333
AAACTATT | -0.0549
CACTTTAG | -0.177
ATTGCGCC | 0.204
CACTATAC | -0.0947
ACAGATCG | 0.0389
ACTGAGTA | -0.112
GTATGCTA | -0.0737
AGCGAGCA | -0.0154
AGACACCG | -0.0475
AGCTCATG | 0.0174
GACCCGAA | -0.0263
ACCAGTCT | 0.0288
CAGTCGAC | 0.125
TCGATTCA | -0.0671
AAACTTAT | -0.041

Series 5
Target: Ras GTPase-activating protein-binding protein 1, C-terminal RGG region (G3BP1, Homo sapiens, UniProt Q13283)
Chain of UniProt Q13283 (whole entry, looked up): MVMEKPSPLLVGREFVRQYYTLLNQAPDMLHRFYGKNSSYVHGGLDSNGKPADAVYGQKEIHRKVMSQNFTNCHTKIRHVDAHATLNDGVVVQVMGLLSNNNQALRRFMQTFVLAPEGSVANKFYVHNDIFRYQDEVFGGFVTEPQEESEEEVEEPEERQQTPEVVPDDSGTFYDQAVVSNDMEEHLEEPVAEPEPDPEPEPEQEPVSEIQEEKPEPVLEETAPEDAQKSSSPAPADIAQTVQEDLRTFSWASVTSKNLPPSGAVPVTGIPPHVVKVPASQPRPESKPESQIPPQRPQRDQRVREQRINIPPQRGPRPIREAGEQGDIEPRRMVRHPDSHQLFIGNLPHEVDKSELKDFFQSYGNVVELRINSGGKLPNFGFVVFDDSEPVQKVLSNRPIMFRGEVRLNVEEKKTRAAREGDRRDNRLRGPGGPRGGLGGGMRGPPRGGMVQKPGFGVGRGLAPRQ
Technique: RNA Bind-n-Seq
Form: RNA
Sample: in vitro
Tested at: 1 µM
Notes: whole 134-nt RNA, ends assumed
With: 150 mM KCl
Baseline: input library
Direction: higher = stronger binding
All sequences stand within: GGGAGUUCUACAGUCCGACGAUC … UGGAAUUCUCGGGUGUCAAGG
Sequence | log2 enrichment
CCUCAAGUCCUGUGCUACACAUCGUAUGUACCGAAUCGGGCGGGCGGGGCGGGAAAGUAUUAUGUUACGCCGUUCGGAUCUGCACUUCCA | 2.25
AGUCCUGUGCUACACAUCGUAUGUACCGAAUCGGGGUUUGGGGUGGGGUUUUUGGGGAAAGUAUUAUGUUACGCCGUUCGGAUCUGCACU | 1.06
ACCAUGCAGGUGGGCAUCUUUGGGAAGUGGGGCAAGGGGGGGAUAGGGAGGGGGGUAACACUUUGGGAACAGGGGGUCCCAGGUCGUUUC | 1.73
CAAGUCCUGUGCUACACAUCGUAUGUACCGAAUCGGGGUUUGGGGAGGGGAGGGGAAAGUAUUAUGUUACGCCGUUCGGAUCUGCACUUC | 2.76
UUGGGUUCAAUAUACGGAGAGUGCCCUGUGCCAAAGCCACGAGUUGAUCGUCCAAGAAAAGUUCCUGUGAUACAAGAGGAGAGGGCAAUG | -2.02
AGUCCUGUGCUACACAUCGUAUGUACCGAAUCGGGAAAAAGGAAAAAGGGAAAAAGGGAAAGUAUUAUGUUACGCCGUUCGGAUCUGCAC | -1.8
AGUCCUGUGCUACACAUCGUAUGUACCGAAUCGGGGUUUUGGGUUUUGGGUUUUGGGGAAAGUAUUAUGUUACGCCGUUCGGAUCUGCAC | 1.16
UGGAGCCCAACCUGUGCCGCUCAGUCCUCAUUGCCAACACGGUCCGGCAGAUCCAAGAGGAGAUGACGCAGGAUGGGACGUGGCGCACAG | -1.39
UGGCCCUGGUGGCAUGCGGGGUGGAAGAGGUGGCCUCAUGGAUCGUGGUGGUCCCGGUGGAAUGUUCAGAGGUGGCCGUGGUGGAGACAG | 2.38
CUGUGCUACACAUCGUAUGUACCGAAUCGGGGUUUUUGGGGUUUUUUUGGGGUUUUUGGGGAAAGUAUUAUGUUACGCCGUUCGGAUCUG | 0.0583
GCAGGAAGUAAAAACAAAUGGAAAUGCUUCGGAUAGUGGCAGGGGUGGGGGUUGCUAGGGAAAGGGUGGGAUGGGAGUGGGUAAAGAGUU | 2.3
UAACUUUAGAGGAGGAUCUGAUGGAUAUGGCAGUGGACGUGGAUUUGGGGAUGGCUAUAAUGUGUAUGGAGGAGGACCUGGAGGUGGCAA | -0.712
CCUCAAGUCCUGUGCUACACAUCGUAUGUACCGAAUCGGGGUGGGUGGUGGGGAAAGUAUUAUGUUACGCCGUUCGGAUCUGCACUUCCA | 0.704
CACAGACAACACGGACCCACACAGACACAGAGGGAAGGGGUUGGGAUGGGGACAGGGUGCACAGCAGGGCGGGGUAGGACCCCAGCCCCU | -0.492

Excerpt of the above (series 3):
Sequence | E-score
TACACAAA | 0.337
AGAACGAA | 0.0916
GCTTTTAC | 0.161
ACACTCAA | 0.0906
GAGCGCAA | -0.19
AAAGGCTG | -0.178
CCAGTAGA | -0.0236
AGTGAAGA | 0.074
AGGCAATC | -0.0563
CTCTGAAA | 0.142
CACTCAGC | -0.215
CGCCACCG | -0.315
